Results gathered from unrelated publications.
Compare with care: the assays were run in different laboratories. Several values in a cell are separate wells, animals, samples, runs or records. ± gives the spread as reported. Values after ≈ are worked out from the molar mass of the structure shown.

Structure (SMILES)	test	test system	setting	scale	endpoint	value
Cc1nc2cccc(OCC(C)(C)C(=O)NC(C)C)c2c(N)c1C(=O)O		Sprague-Dawley rat, male, plasma	oral, 10 mg/kg, day 7 over day 1, 7-day repeated dosing	baseline: day 7 over day 1	AUClast ratio	2.68 ± 1.88
O=C(Cn1cnc([N+](=O)[O-])n1)Nc1ccc(N2CCOCC2)c(Cl)c1		aqueous buffer	pH 7.4		thermodynamic solubility	4.29 µM (≈ 1.57 µg/mL)
Cn1cc([C@H]2C[C@H]3CSC(N)=N[C@@]3(c3ccc(F)cc3F)CO2)cn1		male 129/SVE mouse, brain	subcutaneous, 10 mg/kg, 3 h		brain concentration	1090 nM
CCn1cc(C(=O)N2CCOCC2)c(=O)c2cc(NC3Cc4ccccc4C3)cnc21		human, fasted	oral suspension, 5 mg single dose, arithmetic mean		half-life	2.43 h
CC(C)C[C@H](NC(=O)[C@@H](Cc1c[nH]c2ccccc12)NC(=O)[C@H](Cc1ccc(O)cc1)NC(=O)[C@H](CO)NC(=O)[C@H](Cc1c[nH]c2ccccc12)NC(=O)[C@H](Cc1c[nH]cn1)NC(=O)[C@@H]1CCC(=O)N1)C(=O)N[C@@H](CCCNC(=N)N)C(=O)N1CCC[C@H]1C(=O)NCC(N)=O		Chinese CPP children, boys	intramuscular, 22.5 mg, 12 months, day 1, month 6		patients, serious adverse events	0%
Cc1ccc([C@@H]2O[C@H](CO)[C@@H](O)[C@H](O)[C@H]2O)cc1Cc1ccc(-c2ccc(F)cc2)s1		Japanese type 2 diabetes patients	100 mg, day 1, 24 h urine collection	baseline: baseline	urinary sodium excretion change	54.1 mEq
CCOc1c([C@H](C)n2nc(C)c3c(N)ncnc32)cc(Cl)c(F)c1[C@@H]1CNC(=O)C1	measured: QTcF change above 60 ms	previously treated B-cell malignancy	oral, 20 mg once daily, baseline QTcF ≤450 ms	baseline: baseline	ECG observations	1.2%
C[C@@H]1CCO[C@H]2Cn3cc(C(=O)NCc4ccc(F)cc4F)c(=O)c(O)c3C(=O)N12	population PK, post-hoc	children, 10 to <14 kg, plasma	oral, 8 mg granules, 24 h, steady state, geometric mean		plasma concentration	508 ng/mL
COc1ccc2c(c1)CN(C(=O)CCN1CCC(Cc3ccccc3)CC1)CC[S@@+]2[O-]	telemetry	conscious male beagle dogs	intravenous, 2 mg/kg, 1 h		QTc interval	250 ± 4 ms
CN[C@@H](C)C(=O)N[C@H]1CN(S(=O)(=O)c2cccc(S(=O)(=O)N3CC[C@H]4CC[C@@H](C(=O)NC(c5ccccc5)c5ccccc5)N4C(=O)[C@@H](NC(=O)[C@H](C)NC)C3)c2)CC[C@H]2CC[C@@H](C(=O)NC(c3ccccc3)c3ccccc3)N2C1=O	LC-MS/MS	human, advanced solid tumours, plasma	intravenous, 12 mg weekly, day 15		AUC(0-t)	214 ± 32.6 ng·h/mL
C=CCN1CC(=O)N2[C@@H](Cc3ccc(O)cc3F)C(=O)N(Cc3cccc(N4CC(N5CCN(CC)CC5)C4)n3)C[C@@H]2N1C(=O)NCc1ccccc1		advanced solid tumour patients	oral, 100 mg twice daily, any grade, dose-escalation		treatment-related nausea	83.3%
Cc1ccc(Sc2ccccc2N2CCNCC2)c(C)c1	measured: feeling abnormal	healthy adult women	oral, 10 mg daily, 12 days		participants with TEAE	33.3%
O=C(Nc1cnccc1Cl)N1CCN(Cc2ccc3c(c2)OC(F)(F)O3)CC1	measured: Fatigue	human healthy young men	10 mg, multiple dose		adverse event incidence	0%
CN(C(=O)n1cnc(-c2cccnc2)c1)[C@H]1CC[C@H](O)CC1		rat, hippocampus	oral, 10 mg/kg single dose, 4 h		tissue concentration	37.6 ± 9.5 ng/g
CNCc1ccc(-c2[nH]c3cc(F)cc4c3c2CCNC4=O)cc1		human patients	oral, 840 mg twice daily, all grades		dyspnoea incidence	33.3%
CC/C=C\C/C=C\C/C=C\C/C=C\C/C=C\C/C=C\CCC(=O)O.Cc1cc(/C=C/C#N)cc(C)c1Nc1ccnc(Nc2ccc(C#N)cc2)n1		Peceol			kinetic solubility	< 50000 µg/mL
Nc1ccc(C=Cc2ccc([125I])cc2)cc1	HPLC		up to 8 h, room temperature		storage stability	stable
CSc1ccccc1C(=O)NCCn1cc(C(=O)NCc2cccc(C)n2)c(=O)c2cc3c(cc21)OC(F)(F)O3		Sprague-Dawley rat, male, plasma	intravenous, 20 mg/kg of parent drug		Cmax	1690 ± 166 ng/mL
Cn1cncc1[C@@](N)(c1ccc(Cl)cc1)c1ccc2c(c1)c(-c1cccc(Cl)c1)cc(=O)n2C		healthy male humans, faeces	oral, 50 mg, [14C]-labelled	baseline: dose	unchanged drug excreted	6%
CCN1/C(=C/C(C)=O)Sc2ccc(F)cc21		cynomolgus monkey	oral, 100 mg/kg, 2 h post-dose	baseline: pre-dose	mean blood pressure change	96.4 ± 3.4%
Cl.[2H]C([2H])([2H])CC(=O)c1cnc(NC(=O)C2CC2)cc1Nc1cccc(-c2ncn(C([2H])([2H])[2H])n2)c1OC		human, fed	oral, 25 mg, single dose, liquid formulation, geometric mean		AUC(0-inf)	1830 ng·h/mL

Structure (SMILES)	test	test system	setting	scale	endpoint	value
COc1cc2[nH]c(C)c(-c3cc(C(F)(F)F)cc(C(F)(F)F)c3)c(=O)c2cc1Cl			pH 7.4		kinetic solubility	< 2 µM
O=C(Nc1nc2cccc(-c3ccc(CN4CCS(=O)(=O)CC4)cc3)n2n1)C1CC1	measured: pyrexia	rheumatoid arthritis patients	oral, 150 mg once daily, 4 weeks, any relatedness		treatment-emergent adverse events	0%
c1ccc(-c2nc(NCc3nccs3)c3ccccc3n2)nc1		Japanese Pharmacopoeia disintegration test solution 2	pH 6.8		kinetic solubility	71 µg/mL
COc1cc([C@@H]2Oc3cc([C@H]4Oc5cc(O)cc(O)c5C(=O)[C@@H]4O)ccc3O[C@H]2CO)ccc1O		FVB wild-type mice, plasma	oral gavage, 500 mg/kg silymarin, geometric mean		AUC(0-4h)	0.45 µM·h
CC(C)c1nc(CN(C)C(=O)N[C@@H](CCN2CCOCC2)C(=O)N[C@H](CC[C@H](Cc2ccccc2)NC(=O)OCc2cncs2)Cc2ccccc2)cs1		human	oral, dose not given		participants with Headache	0%
O=C(N[C@H](Cc1c[nH]c2ccccc12)C(=O)Nc1ccncc1)c1ccc(N2CCN(c3ccc(F)c(F)c3)CC2)cc1F		Swiss Webster mouse, female, intestine	oral, 50 mg/kg, 8 h, 20% HPβCD vehicle		concentration	3740 nM
CC(C)(CO)c1cc2cc(NC(=O)C3(c4ccc5c(c4)OC(F)(F)O5)CC3)c(F)cc2n1C[C@@H](O)CO		pregnant women with cystic fibrosis, plasma	dose not given	baseline: non-pregnant individuals	AUC reduction	43%
COc1cc2nccc(Oc3ccc(NC(=O)C4(C(=O)Nc5ccc(F)cc5)CC4)cc3)c2cc1OC		patients with relevant toxicity (grade 3-4 or dose reduction), plasma	oral, dose not given, mean		Ctrough	950 ng/mL
COc1cccc(OC)c1-c1cc(C(=O)NC2(C(=O)O)C3CC4CC(C3)CC2C4)nn1-c1ccc(C(=O)N(C)CCCN(C)CCCN(C)C(=O)CN2CCN(CC(=O)[O-])CCN(CC(=O)[O-])CCN(CC(=O)[O-])CC2)cc1C(C)C.[177Lu+3] (stereo not drawn)		mouse, HT-29 xenograft	24 h post injection, biodistribution	baseline: tumour over liver uptake	tumour-to-liver ratio	20.1
CC(C)(O)c1ccccc1CC[C@@H](SCC1(CC(=O)O)CC1)c1cccc(/C=C/c2ccc3ccc(Cl)cc3n2)c1		fresh human whole blood	1 µM, pH 7.4		blood-to-plasma ratio	0.58
N#Cc1ccc2c(c1)[C@H]1CCCN(C(=O)c3ccc4[nH]cnc4c3)[C@H]1C2		human males	40 mg, end of trial		DHEA-S level	4.1 µmol/L
CC(C)c1nc(N(C)S(C)(=O)=O)nc(-c2ccc(F)cc2)c1/C=C/[C@@H](O)C[C@@H](O)CC(=O)O		human	oral, 10 mg, alone		participants with abdominal pain	8.3%
Cn1cc(Nc2nccc(-c3ccc4c(c3)CN(C3COC3)CC[C@H]4NC(=O)c3cn(C(C)(C)C)nn3)n2)cn1	measured: CD3+ T cell count	human, clinical trial, whole blood	50 mg twice daily, follow-up		percent change from baseline	-4.39%
COc1ccc2c(=O)n(C)c(-c3ccccc3)nc2c1		Sprague-Dawley rat, male, brain	oral, 30 mg/kg, 0.5 h	baseline: brain over plasma	tissue/plasma ratio	0.63
CCCOc1ccc(NC(=O)CN2CCN(C)CC2)cc1-c1nc(CC)c(CC)c(=O)[nH]1	least-squares mean difference	healthy Chinese men	10 mg, supine or semi-supine, together with: alcohol 0.5 g/kg	baseline: compound plus placebo	AUEC(0-4 h) systolic BP difference	-15.3 h·mmHg
c1csc(CNc2cc[nH]n2)c1	DNA damage, alkaline comet	Hsd:ICR(CD-1) mice, female, liver	oral gavage, 250 mg/kg/day, 3 days		tail DNA (mean)	5.8%
CN1CCC[C@H](CN2c3ccccc3Sc3ccccc32)C1.Cl		female Wistar rat, lung	oral, 16 mg/kg		Cmax	19100 ng/g
CCCCOc1ccc([C@H]2CC[C@H](CCC)CC2)c(F)c1F		rat, placenta	10 ng/mL in perfusate, low dose, mixture of 21 LCMs		median placental accumulation	16.9 ng/g
COc1ccc([C@@H](O)c2cc(-c3ncnc4cc(N5CCOCC5)ccc34)c(F)cc2Cl)nn1		locally advanced rectal cancer patients	250 mg, together with: capecitabine and radiotherapy		fatigue TEAE incidence	0%
CCc1c(-c2ccccc2)c(-c2ccccc2)nn1-c1ccccc1-c1cccc(OCC(=O)O)c1		Sprague-Dawley rat, small intestine homogenate	oral, 10 mg/kg, 1 h		concentration	5020 ng/mL and 4690 ng/mL
CCCOc1ccc(-c2ccc(C#N)cc2)cc1		Sprague-Dawley rat, female, placenta	1000 ng/mL in perfusate, 50 (unit not given), middle dose, mixture of 21 LCMs		median placental accumulation	82.3 ng/g

Excerpt of the above:
Structure (SMILES)	test	test system	setting	scale	endpoint	value
CC(C)(CO)c1cc2cc(NC(=O)C3(c4ccc5c(c4)OC(F)(F)O5)CC3)c(F)cc2n1C[C@@H](O)CO		pregnant women with cystic fibrosis, plasma	dose not given	baseline: non-pregnant individuals	AUC reduction	43%
Cn1cc([C@H]2C[C@H]3CSC(N)=N[C@@]3(c3ccc(F)cc3F)CO2)cn1		male 129/SVE mouse, brain	subcutaneous, 10 mg/kg, 3 h		brain concentration	1090 nM
COc1cccc(OC)c1-c1cc(C(=O)NC2(C(=O)O)C3CC4CC(C3)CC2C4)nn1-c1ccc(C(=O)N(C)CCCN(C)CCCN(C)C(=O)CN2CCN(CC(=O)[O-])CCN(CC(=O)[O-])CCN(CC(=O)[O-])CC2)cc1C(C)C.[177Lu+3] (stereo not drawn)		mouse, HT-29 xenograft	24 h post injection, biodistribution	baseline: tumour over liver uptake	tumour-to-liver ratio	20.1
CC(C)c1nc(N(C)S(C)(=O)=O)nc(-c2ccc(F)cc2)c1/C=C/[C@@H](O)C[C@@H](O)CC(=O)O		human	oral, 10 mg, alone		participants with abdominal pain	8.3%
CSc1ccccc1C(=O)NCCn1cc(C(=O)NCc2cccc(C)n2)c(=O)c2cc3c(cc21)OC(F)(F)O3		Sprague-Dawley rat, male, plasma	intravenous, 20 mg/kg of parent drug		Cmax	1690 ± 166 ng/mL
